Measurements gathered from unrelated publications.
Each line is one published result; not all experiments were run side by side. pIC50: −log10 of the molar value.
TMPRSS2: Transmembrane protease serine 2 (TMPRSS2, Homo sapiens, UniProt O15393)
Sequence of UniProt O15393 (whole entry, looked up): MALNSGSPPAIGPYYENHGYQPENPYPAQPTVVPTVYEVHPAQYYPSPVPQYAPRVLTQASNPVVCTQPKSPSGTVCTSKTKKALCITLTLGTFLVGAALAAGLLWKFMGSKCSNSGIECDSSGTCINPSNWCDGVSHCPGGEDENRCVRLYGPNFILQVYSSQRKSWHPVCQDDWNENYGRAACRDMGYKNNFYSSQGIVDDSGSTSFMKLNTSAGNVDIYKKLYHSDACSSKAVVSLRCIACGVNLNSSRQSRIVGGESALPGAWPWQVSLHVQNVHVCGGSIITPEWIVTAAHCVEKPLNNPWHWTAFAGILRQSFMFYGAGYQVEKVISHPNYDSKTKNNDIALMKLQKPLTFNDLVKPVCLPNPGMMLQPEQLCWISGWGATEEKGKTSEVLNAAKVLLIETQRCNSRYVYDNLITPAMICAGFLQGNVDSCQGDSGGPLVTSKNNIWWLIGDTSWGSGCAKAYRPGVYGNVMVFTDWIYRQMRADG
PFF0160c E182D: Dihydroorotate dehydrogenase (quinone), mitochondrial (PFF0160c, Plasmodium falciparum, UniProt Q08210, E182D)
Sequence of UniProt Q14432 (whole entry, looked up): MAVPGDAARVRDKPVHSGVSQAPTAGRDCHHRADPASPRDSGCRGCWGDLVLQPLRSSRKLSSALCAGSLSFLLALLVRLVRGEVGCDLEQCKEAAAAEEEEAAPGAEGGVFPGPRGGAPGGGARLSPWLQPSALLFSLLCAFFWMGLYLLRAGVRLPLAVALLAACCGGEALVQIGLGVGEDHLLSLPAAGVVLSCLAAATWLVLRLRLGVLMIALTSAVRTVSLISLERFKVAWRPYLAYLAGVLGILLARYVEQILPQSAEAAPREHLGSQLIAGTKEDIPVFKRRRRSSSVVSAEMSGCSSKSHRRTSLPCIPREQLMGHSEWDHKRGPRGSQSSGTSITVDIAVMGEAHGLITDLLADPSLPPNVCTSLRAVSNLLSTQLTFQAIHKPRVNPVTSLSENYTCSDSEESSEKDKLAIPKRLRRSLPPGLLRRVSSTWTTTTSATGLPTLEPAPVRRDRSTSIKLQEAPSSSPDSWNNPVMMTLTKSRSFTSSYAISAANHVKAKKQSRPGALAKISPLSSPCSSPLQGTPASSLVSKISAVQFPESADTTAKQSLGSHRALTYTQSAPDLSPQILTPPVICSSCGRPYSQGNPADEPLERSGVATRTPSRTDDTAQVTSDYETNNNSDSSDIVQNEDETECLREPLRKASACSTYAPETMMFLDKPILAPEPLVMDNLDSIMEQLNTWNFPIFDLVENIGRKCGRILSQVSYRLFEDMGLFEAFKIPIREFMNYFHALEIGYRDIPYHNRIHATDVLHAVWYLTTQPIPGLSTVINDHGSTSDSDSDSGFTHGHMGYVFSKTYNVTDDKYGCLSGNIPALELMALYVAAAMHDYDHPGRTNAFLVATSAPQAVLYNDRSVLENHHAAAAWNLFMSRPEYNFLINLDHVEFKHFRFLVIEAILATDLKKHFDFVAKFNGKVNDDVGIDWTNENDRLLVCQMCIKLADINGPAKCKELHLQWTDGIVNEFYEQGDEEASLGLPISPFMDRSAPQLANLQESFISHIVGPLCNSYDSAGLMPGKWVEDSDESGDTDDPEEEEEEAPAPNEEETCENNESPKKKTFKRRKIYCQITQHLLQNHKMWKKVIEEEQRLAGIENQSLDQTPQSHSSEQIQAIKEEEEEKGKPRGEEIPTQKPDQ
Sequence of UniProt O00444 (whole entry, looked up): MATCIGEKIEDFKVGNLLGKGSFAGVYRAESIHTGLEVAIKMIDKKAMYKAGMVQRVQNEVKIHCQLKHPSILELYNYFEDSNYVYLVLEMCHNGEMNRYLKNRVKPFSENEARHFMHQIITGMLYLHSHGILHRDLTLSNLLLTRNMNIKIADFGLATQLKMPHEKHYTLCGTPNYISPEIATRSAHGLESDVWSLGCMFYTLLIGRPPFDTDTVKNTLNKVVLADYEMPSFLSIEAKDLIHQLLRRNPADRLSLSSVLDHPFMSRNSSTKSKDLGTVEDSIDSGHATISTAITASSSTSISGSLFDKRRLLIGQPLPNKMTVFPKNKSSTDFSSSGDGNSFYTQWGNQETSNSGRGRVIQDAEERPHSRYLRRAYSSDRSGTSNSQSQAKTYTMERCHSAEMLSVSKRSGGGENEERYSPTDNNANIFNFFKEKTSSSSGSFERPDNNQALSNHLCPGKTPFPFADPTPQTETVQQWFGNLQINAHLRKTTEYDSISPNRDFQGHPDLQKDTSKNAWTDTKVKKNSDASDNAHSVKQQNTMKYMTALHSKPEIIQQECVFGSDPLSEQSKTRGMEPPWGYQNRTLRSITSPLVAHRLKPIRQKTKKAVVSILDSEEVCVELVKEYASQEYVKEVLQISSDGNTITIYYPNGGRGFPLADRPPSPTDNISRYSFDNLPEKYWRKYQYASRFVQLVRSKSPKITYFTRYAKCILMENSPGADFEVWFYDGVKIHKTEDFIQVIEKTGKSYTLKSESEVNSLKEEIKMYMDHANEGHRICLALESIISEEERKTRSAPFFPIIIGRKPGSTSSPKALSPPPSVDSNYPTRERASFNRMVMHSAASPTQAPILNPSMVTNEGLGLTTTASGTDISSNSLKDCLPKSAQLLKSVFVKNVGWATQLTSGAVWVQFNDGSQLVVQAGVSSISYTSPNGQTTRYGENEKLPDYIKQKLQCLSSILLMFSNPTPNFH
Sequence of UniProt Q9Y2H1 (whole entry, looked up): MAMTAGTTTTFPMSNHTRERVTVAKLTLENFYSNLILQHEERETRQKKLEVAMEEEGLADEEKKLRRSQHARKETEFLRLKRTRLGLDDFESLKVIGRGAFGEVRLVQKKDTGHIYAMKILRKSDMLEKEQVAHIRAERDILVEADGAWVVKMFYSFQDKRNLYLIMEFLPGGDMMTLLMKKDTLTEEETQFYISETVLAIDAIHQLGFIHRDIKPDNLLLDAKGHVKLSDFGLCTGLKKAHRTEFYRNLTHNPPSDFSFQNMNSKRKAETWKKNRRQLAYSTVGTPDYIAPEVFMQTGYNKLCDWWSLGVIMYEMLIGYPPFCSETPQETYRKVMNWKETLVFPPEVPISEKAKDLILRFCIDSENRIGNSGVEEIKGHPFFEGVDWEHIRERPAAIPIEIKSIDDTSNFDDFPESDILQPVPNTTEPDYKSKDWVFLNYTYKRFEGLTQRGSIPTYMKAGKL
Sequence of UniProt Q15569 (whole entry, looked up): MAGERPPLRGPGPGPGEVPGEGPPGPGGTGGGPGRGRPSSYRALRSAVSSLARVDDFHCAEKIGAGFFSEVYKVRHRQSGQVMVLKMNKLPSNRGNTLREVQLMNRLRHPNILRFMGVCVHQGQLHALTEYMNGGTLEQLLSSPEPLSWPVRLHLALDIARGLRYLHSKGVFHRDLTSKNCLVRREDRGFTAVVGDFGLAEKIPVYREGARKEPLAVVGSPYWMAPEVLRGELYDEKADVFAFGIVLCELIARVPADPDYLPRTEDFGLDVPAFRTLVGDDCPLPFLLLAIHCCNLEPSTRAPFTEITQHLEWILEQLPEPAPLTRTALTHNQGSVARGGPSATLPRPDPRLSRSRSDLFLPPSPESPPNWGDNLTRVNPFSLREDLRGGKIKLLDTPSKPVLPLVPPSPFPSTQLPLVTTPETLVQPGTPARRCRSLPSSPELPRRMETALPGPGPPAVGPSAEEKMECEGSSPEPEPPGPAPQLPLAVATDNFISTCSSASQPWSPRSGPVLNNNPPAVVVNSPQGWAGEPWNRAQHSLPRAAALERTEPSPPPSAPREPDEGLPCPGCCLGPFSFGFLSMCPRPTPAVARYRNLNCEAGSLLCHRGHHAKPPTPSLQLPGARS
Sequence of UniProt P45983 (whole entry, looked up): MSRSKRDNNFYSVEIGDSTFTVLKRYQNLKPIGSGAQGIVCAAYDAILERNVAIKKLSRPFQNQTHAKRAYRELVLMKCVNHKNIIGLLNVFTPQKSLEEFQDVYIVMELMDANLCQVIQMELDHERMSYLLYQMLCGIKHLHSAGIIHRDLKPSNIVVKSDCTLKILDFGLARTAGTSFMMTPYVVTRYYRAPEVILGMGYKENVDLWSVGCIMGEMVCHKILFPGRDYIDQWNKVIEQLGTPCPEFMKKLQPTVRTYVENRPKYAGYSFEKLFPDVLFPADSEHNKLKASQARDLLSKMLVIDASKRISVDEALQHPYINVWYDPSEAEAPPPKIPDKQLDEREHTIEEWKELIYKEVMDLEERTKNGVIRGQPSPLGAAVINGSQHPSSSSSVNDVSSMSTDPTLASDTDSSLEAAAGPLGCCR
Sequence of UniProt P08172 (whole entry, looked up): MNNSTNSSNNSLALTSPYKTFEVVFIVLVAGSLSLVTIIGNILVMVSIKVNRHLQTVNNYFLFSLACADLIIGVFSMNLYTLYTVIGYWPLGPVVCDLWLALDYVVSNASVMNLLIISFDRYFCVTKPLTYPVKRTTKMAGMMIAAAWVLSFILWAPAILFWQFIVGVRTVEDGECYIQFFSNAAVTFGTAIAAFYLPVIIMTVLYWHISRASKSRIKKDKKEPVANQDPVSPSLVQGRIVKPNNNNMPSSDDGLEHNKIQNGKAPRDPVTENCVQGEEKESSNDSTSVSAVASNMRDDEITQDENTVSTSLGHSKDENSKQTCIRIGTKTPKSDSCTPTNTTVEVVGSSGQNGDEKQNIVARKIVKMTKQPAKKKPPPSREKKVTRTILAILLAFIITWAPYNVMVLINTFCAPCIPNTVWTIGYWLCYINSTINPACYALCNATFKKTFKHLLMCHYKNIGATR
Sequence of UniProt P07711 (whole entry, looked up): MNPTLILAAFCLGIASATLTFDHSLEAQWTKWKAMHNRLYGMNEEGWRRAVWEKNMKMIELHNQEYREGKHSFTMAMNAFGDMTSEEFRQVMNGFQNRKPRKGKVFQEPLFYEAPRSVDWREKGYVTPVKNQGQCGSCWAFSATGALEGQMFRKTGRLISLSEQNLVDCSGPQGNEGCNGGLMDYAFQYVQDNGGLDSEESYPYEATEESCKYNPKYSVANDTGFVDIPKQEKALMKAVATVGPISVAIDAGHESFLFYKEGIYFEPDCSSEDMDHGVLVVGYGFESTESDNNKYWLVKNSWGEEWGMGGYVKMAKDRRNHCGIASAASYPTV

C#Cc1n[nH]c2c(-c3cn([C@@H](C)c4ccccn4)c(=O)[nH]c3=O)cc(F)cc12
inhibition (MAPK8 (Homo sapiens, UniProt P45983); enzyme activity, inhibitor; 0.1 µM): 8.2%

Nc1ncc(-c2nc(N3CCOCC3)nc(N3CCOCC3)n2)c(C(F)F)n1
remaining binding (CRK2 (Plasmodium falciparum, UniProt P61075); binding, competition with immobilised ligand; 10 µM): 64%

[2H]c1c([2H])c([C@]2([2H])CCCN2C(=O)C(C)(C)Oc2ccc3cn[nH]c3c2)c([2H])c([2H])c1C([2H])([2H])[2H]
remaining binding (TESK1 (Homo sapiens, UniProt Q15569); binding, competition with immobilised ligand; 1 µM): 86%

CC(=O)N[C@@H](CCC(N)=O)C(=O)N[C@@H](Cc1ccccc1)C(=O)N[C@@H](CCCNC(=N)N)C(=O)CN1CCCCC1
activity vs control (TMPRSS2; enzyme activity, inhibitor; 1 nM): 98%

COc1ncccc1-c1cnn2ccc(N3CCN(C(=O)OC(C)C)CC3)nc12
remaining binding (PLK4 (Homo sapiens, UniProt O00444); binding, competition with immobilised ligand; 1 µM): 71%

CC[C@H](C)[C@H](NC(=O)[C@H](Cc1ccccc1)NC(=O)[C@H](CCC(=O)O)NC(=O)[C@H](CCCNC(=N)N)NC(=O)[C@H](C)NC(=O)[C@H](C)NC(=O)[C@H](CCC(N)=O)NC(=O)[C@H](CCC(=O)O)NC(=O)[C@H](CCC(=O)O)NC(=O)[C@H](CC(C)C)NC(=O)[C@H](Cc1ccc(O)cc1)NC(=O)[C@H](CO)NC(=O)[C@H](CO)NC(=O)[C@@H](NC(=O)[C@H](CC(=O)O)NC(=O)[C@H](CO)NC(=O)[C@@H](NC(=O)[C@H](Cc1ccccc1)NC(=O)[C@@H](NC(=O)CNC(=O)[C@H](CCC(=O)O)NC(=O)[C@H](C)NC(=O)CCc1c[nH]cn1)[C@@H](C)O)[C@@H](C)O)C(C)C)C(=O)N[C@@H](C)C(=O)N[C@@H](Cc1c[nH]c2ccccc12)C(=O)N[C@@H](CC(C)C)C(=O)N[C@H](C(=O)N[C@@H](CCCNC(=N)N)C(=O)NCC(=O)N[C@@H](CCCNC(=N)N)C(=O)N[C@@H](CCCCNC(=O)COCCOCCNC(=O)COCCOCCNC(=O)CC[C@H](NC(=O)CCCCCCCCCCCCCCCCC(=O)O)C(=O)O)C(=O)NCC(=O)NCC(=O)N[C@@H](CO)C(=O)N[C@@H](CCCCNc1c(NCCCCCN(O)C(=O)CCC(=O)NCCCCCN(O)C(=O)CCC(=O)NCCCCCN(O)C(C)=O)c(=O)c1=O)C(=O)O)C(C)C
Cmax (rat, plasma; subcutaneous, 20 nmol/kg, single dose): 60.8 nM

NCc1c[nH]c2ccccc12
remaining activity (Procathepsin L (CTSL, Homo sapiens, UniProt P07711); enzyme activity, inhibitor; 100 µM): 130%

c1cncc([C@@H]2CCCN2)c1
inhibition (CHRM2 (Homo sapiens, UniProt P08172); ligand displacement; 50 µM): 19.8%

Cc1nn(C)cc1-c1nc2c(N3CCN(Cc4ccc(Cl)cc4)CC3)c(Cl)cnc2[nH]1
remaining binding (STK38L (Homo sapiens, UniProt Q9Y2H1); binding, competition with immobilised ligand; 1 µM): 90%

COC(=O)c1cc(-c2cccc(NC(=O)Nc3ccc(Cl)cc3)c2)on1
MIC (Pseudomonas aeruginosa; microbial growth, broth dilution; ATCC27853): > 64 µg/mL

Cc1cc(=O)oc2c1ccc1oc(C(O)c3ccc(Cl)cc3)c(C)c12 (stereo not shown)
pIC50 (PFF0160c E182D; enzyme activity, inhibitor, absorbance): 6.07

N=C(N)NCCCCC(=O)N[C@@H](CCC(N)=O)C(=O)N[C@@H](Cc1cscn1)C(=O)N[C@@H](CCCNC(=N)N)C(=O)c1nc2ccccc2s1
activity vs control (TMPRSS2; enzyme activity, inhibitor; 1 nM): 72%

CC(C)CC(=O)OC[C@H]1O[C@@](C#N)(c2ccc3c(N)ncnn23)[C@H](O)[C@@H]1O
inhibition (PDE3A (Homo sapiens, UniProt Q14432); enzyme activity, inhibitor; 20 µM): 2%

CCC(C)[C@H](N)C(=O)N[C@@H](CCC(N)=O)C(=O)N[C@@H](CO)C(=O)N[C@@H](CCCNC(=N)N)C(=O)c1nc2ccccc2s1 (stereo partly shown)
activity vs control (TMPRSS2; enzyme activity, inhibitor; 1 nM): 99%

O=c1cc(NCCCNCc2scc(I)c2I)[nH]c2ccccc12
pIC50 (PFF0160c E182D; enzyme activity, inhibitor, absorbance): 5.49

N.N.[Cl][Pt][Cl]
inhibition (OCI-Ly7; cell growth or viability, ATP luminescence; 10 µM, 72 h): 100%
